Assay results collected from several papers.
Compare with care: the assays were run in different laboratories. ± marks the error that the study gave.
DRD3: D(3) dopamine receptor (DRD3, Homo sapiens, UniProt P35462)
Sequence of UniProt P35462 (whole entry, looked up): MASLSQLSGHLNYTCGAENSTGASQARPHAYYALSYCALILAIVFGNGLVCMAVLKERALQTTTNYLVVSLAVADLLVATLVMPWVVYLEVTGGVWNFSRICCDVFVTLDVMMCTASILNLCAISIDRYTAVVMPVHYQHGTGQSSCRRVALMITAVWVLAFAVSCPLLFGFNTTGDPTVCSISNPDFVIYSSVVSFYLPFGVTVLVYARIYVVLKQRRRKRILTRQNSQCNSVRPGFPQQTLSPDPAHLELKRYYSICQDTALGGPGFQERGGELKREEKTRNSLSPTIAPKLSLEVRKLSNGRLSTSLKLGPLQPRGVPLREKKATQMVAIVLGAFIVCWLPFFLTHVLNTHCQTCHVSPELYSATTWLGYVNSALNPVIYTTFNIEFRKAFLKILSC
ESR1: Estrogen receptor (ESR1, Homo sapiens, UniProt P03372)
Sequence of UniProt P03372 (whole entry, looked up): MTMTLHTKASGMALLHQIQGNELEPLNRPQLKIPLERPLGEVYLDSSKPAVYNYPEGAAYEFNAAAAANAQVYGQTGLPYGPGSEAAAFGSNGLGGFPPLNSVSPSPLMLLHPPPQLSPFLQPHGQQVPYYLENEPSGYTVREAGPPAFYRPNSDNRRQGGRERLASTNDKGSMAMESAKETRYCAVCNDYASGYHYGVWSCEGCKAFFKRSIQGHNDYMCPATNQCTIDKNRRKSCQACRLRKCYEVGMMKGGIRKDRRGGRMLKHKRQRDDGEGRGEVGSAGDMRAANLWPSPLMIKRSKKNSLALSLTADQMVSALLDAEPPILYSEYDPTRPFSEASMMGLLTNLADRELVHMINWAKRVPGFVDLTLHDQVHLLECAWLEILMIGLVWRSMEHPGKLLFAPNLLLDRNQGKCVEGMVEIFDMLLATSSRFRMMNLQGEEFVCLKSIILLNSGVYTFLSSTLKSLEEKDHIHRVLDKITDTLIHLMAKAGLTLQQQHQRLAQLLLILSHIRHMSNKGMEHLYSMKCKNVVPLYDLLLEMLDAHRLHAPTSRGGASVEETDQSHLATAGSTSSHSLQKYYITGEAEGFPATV
SLC10A1: Hepatic sodium/bile acid cotransporter (SLC10A1, Homo sapiens, UniProt Q14973)
Sequence of UniProt Q14973 (whole entry, looked up): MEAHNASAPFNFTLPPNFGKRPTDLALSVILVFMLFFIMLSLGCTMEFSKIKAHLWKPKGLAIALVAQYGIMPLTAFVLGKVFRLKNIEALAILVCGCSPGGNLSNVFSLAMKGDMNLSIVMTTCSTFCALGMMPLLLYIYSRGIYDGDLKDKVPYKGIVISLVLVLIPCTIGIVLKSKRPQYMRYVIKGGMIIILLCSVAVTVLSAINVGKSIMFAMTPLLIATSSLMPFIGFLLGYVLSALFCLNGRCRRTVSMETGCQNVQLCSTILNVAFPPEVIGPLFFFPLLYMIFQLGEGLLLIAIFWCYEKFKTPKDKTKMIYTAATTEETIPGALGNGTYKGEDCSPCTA
CDK2: Cyclin-dependent kinase 2 (CDK2, Homo sapiens, UniProt P24941)
RORC: Nuclear receptor ROR-gamma (RORC, Homo sapiens, UniProt P51449)
Sequence of UniProt P51449 (whole entry, looked up): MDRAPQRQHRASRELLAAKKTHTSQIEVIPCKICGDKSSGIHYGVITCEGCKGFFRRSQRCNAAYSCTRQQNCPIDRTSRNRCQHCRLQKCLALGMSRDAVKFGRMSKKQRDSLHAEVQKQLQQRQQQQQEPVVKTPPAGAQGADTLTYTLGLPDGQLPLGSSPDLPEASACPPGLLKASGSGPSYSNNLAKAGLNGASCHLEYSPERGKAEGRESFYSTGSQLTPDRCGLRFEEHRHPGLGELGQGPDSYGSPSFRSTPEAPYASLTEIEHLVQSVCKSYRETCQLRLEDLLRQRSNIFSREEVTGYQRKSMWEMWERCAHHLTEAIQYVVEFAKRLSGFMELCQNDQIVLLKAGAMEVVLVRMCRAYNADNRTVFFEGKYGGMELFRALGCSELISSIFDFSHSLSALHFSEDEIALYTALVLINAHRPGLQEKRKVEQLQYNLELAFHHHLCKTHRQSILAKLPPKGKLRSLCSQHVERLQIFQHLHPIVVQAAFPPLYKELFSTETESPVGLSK
MBLAC2: MBLAC2 (Homo sapiens, UniProt Q68D91)
Sequence of UniProt Q68D91 (whole entry, looked up): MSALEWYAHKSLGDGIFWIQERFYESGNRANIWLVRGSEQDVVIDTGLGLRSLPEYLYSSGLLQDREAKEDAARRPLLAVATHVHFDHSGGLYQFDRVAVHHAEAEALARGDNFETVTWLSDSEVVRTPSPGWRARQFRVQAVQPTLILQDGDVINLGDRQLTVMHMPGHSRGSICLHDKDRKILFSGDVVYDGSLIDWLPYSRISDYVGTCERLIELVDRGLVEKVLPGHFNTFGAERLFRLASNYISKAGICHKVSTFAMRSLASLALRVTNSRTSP
CDK2 with cyclin A: Cyclin-dependent kinase 2, with cyclin A (CDK2, Homo sapiens, UniProt P24941)
Sequence of UniProt Q9P2K8 (whole entry, looked up): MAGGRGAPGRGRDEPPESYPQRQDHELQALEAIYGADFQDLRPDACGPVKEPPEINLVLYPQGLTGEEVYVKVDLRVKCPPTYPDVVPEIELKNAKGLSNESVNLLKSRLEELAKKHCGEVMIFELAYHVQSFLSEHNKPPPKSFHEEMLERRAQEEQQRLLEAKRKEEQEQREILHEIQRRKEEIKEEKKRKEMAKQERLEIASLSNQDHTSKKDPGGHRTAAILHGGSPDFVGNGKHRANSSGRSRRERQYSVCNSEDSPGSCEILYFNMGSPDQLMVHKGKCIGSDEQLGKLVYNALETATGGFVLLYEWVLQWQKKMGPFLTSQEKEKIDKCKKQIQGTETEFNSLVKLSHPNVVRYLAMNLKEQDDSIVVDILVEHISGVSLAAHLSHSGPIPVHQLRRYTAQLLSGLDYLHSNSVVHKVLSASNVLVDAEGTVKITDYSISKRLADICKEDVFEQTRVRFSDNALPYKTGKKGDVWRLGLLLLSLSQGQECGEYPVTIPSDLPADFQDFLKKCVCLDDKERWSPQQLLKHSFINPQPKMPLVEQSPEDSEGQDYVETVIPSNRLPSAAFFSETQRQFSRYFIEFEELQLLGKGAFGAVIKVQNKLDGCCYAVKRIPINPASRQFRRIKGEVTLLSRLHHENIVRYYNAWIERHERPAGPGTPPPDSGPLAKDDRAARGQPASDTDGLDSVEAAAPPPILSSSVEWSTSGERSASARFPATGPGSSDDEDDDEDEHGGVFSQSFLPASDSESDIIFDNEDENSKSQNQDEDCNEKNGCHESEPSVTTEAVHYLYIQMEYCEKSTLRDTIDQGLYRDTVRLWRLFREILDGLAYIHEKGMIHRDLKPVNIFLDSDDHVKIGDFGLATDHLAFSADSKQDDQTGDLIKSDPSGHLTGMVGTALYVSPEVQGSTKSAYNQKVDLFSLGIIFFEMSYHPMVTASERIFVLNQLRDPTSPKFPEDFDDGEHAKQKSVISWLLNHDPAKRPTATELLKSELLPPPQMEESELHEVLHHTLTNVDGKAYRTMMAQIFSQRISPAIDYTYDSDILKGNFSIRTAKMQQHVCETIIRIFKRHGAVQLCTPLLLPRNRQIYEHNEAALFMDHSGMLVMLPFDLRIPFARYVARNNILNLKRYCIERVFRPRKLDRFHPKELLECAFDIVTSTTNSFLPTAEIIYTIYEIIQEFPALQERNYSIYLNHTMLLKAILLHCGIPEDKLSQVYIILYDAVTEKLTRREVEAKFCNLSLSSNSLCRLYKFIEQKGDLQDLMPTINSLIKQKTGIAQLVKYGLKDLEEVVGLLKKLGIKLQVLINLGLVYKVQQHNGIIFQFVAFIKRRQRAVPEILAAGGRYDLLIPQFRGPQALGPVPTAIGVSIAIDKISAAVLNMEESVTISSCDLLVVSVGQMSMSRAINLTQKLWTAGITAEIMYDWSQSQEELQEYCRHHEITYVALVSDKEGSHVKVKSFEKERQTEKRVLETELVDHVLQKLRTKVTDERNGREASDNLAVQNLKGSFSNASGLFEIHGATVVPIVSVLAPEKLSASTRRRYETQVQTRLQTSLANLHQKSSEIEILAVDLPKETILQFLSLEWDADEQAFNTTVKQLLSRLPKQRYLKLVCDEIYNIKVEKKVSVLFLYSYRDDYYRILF
Sequence of UniProt Q86UW9 (whole entry, looked up): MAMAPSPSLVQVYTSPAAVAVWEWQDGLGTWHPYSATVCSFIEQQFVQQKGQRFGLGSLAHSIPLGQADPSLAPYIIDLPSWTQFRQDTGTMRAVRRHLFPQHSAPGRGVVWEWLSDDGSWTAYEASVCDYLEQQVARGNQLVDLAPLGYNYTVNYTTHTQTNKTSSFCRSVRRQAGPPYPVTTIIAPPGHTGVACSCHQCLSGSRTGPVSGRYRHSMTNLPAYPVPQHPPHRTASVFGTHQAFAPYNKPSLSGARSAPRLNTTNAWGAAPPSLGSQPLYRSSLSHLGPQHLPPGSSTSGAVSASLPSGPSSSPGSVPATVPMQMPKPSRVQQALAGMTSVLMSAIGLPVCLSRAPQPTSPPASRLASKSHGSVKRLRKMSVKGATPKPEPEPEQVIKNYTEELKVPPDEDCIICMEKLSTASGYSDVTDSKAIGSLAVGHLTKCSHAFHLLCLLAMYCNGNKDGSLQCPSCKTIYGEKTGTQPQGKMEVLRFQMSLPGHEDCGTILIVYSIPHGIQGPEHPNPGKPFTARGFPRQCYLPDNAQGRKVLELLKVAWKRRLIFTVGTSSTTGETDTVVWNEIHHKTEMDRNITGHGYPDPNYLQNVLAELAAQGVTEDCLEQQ
Sequence of UniProt Q9GZV3 (whole entry, looked up): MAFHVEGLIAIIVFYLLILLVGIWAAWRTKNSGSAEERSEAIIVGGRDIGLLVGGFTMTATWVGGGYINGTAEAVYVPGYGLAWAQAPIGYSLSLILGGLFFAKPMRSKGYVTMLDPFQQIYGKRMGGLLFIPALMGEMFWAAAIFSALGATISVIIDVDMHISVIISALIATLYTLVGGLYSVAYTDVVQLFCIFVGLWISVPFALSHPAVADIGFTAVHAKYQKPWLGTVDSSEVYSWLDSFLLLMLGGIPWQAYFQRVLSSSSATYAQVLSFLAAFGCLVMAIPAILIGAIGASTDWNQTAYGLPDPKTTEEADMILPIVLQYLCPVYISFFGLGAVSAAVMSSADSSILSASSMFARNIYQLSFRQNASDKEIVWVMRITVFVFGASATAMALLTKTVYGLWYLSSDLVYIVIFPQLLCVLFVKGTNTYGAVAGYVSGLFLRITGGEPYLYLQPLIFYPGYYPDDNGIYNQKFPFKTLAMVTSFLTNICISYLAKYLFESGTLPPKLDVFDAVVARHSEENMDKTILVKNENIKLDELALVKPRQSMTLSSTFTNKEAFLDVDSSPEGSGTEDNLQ

| Structure (SMILES) | target | test | test system | setting | endpoint | result |
| --- | --- | --- | --- | --- | --- | --- |
| Cc1cc(S(=O)(=O)Nc2ccc(C(F)(F)F)c(Cl)c2)c(C)[nH]1 | DRD3 | β-arrestin recruitment, antagonist, PathHunter |  | with: dopamine EC80 | IC50 | > 100 µM |
| O=C1C[C@@H](c2ccc(O)c(O)c2)Oc2cc(O)cc(O)c21 | ESR1 | array formation, agonist | ERα-GFP PRL-HeLa | 1 h | EC50 | 0.963 µM |
| COc1ccc(CC2c3cc(OC)c(OC)cc3CC[N+]2(C)CCC(=O)OCCCCCOC(=O)CC[N+]2(C)CCc3cc(OC)c(OC)cc3C2Cc2ccc(OC)c(OC)c2)cc1OC (stereo not shown) | SLC10A1 | taurocholate uptake, inhibitor | NTCP-expressing HEK293 | with: 10 µM taurocholate | Ki | 176 ± 94 µM |
| O=C(CC1OCCN(Cc2ccccc2)C1=O)Nc1ccc2c(c1)OCCO2 (stereo not shown) | CDK2 | binding |  |  | Kd | > 100 µM |
| CCn1cc(C(=O)O)c(=O)c2ccc(C)nc21 | SLC10A1 | taurocholate uptake, inhibitor | NTCP-expressing HEK293 | with: 10 µM taurocholate | Ki | 1010 ± 652 µM |
| O=C1C[C@@H](c2ccc(O)cc2)Oc2cc(O)cc(O)c21 | ESR1 | array formation, agonist | ERα-GFP PRL-HeLa | 1 h | EC50 | 1.12 µM |
| CC[C@@H]1[C@H](F)C(=O)N[C@@H]1COc1nccc2cc(C(N)=O)c(OC)cc12 | EIF2AK4 (Homo sapiens, UniProt Q9P2K8) | ATP probe binding, KiNativ profiling, refers to: GCN2 Lys1 probe site | THP-1 cell lysate |  | IC50 | > 5 µM |
| CC(C)(COP(=O)(O)OP(=O)(O)OC[C@H]1O[C@@H](n2cnc3c(N)ncnc32)[C@H](O)[C@@H]1OP(=O)(O)O)[C@@H](O)C(=O)NCCC(=O)NCCS | DTX2 (Homo sapiens, UniProt Q86UW9) | competitor, competition MS pulldown | SW-620 cell lysate | with: photo-immobilized beads | Kd | 8.7 µM |
| Cc1[nH]c(C)c(S(=O)(=O)Nc2ccc(C(F)(F)F)c3cccnc23)c1C(=O)N1CCC(F)(F)C1 | DRD3 | β-arrestin recruitment, antagonist, PathHunter |  | with: dopamine EC80 | IC50 | > 100 µM |
| O=C1C[C@@H](c2ccc(O)cc2)Oc2cc(O)ccc21 | ESR1 | array formation, agonist | ERα-GFP PRL-HeLa | 1 h | EC50 | 2.27 µM |
| CS(=O)(=O)CCNCc1ccc(-c2ccc3ncnc(Nc4ccc(OCc5cccc(F)c5)c(Cl)c4)c3c2)o1 | SLC10A1 | taurocholate uptake, inhibitor | NTCP-expressing HEK293 | with: 10 µM taurocholate | Ki | 95.5 ± 38.9 µM |
| CSc1ccc(S(=O)(=O)NCc2ccccn2)cc1 | CDK2 | binding |  |  | Kd | > 100 µM |
| COc1cc(-c2oc3cc(O)cc(O)c3c(=O)c2O)ccc1O | ESR1 | array formation, agonist | ERα-GFP PRL-HeLa | 1 h | EC50 | 0.764 µM |
| COc1ccc(Cl)cc1COc1ccc2c(c1)N(S(=O)(=O)c1cccc(C(F)(F)F)c1)CC2 | RORC | reporter gene, agonist, GAL4 luciferase reporter |  | with: ursolic acid 2 µM | EC50 | 0.49 ± 0.04 µM |
| O=C(CCCCCCC(=O)Nc1ccc([C@H]2O[C@@H](CSc3nc(-c4ccccc4)c(-c4ccccc4)o3)C[C@@H](c3ccc(CO)cc3)O2)cc1)NO | MBLAC2 | inhibitor, competition pulldown | SW620 and MV4-11 lysate | 1 h | Kd | 1.67 µM |
| Cc1c(C(=O)N2CCC(F)(F)C2)c(S(=O)(=O)Nc2ccc(C(F)(F)F)c(Cl)c2)c(C)n1C | DRD3 | β-arrestin recruitment, antagonist, PathHunter |  | with: dopamine EC80 | IC50 | > 100 µM |
| CN1CCN(c2ccc(Nc3ncc4cc(C#N)c(=O)n(C5CCCC5)c4n3)cc2)CC1 | Mitogen-activated protein kinase 9, isoform alpha-2 (MAPK9, Homo sapiens, UniProt P45984) |  |  |  | IC50 | 3.62 µM |
| Cc1[nH]c(C)c(S(=O)(=O)N2CCC(F)(F)C2)c1S(=O)(=O)N1CCC(F)(F)C1 | DRD3 | Go activation, antagonist, BRET |  | with: dopamine | IC50 | > 100 µM |
| O=S(=O)(c1cccc(C(F)(F)F)c1)N1CCc2ccc(OCc3c(F)cccc3Cl)cc21 | RORC | reporter gene, agonist, GAL4 luciferase reporter |  | with: ursolic acid 2 µM | EC50 | 0.26 ± 0.04 µM |
| CC(C)OC(=O)C(C)(C)Oc1ccc(C(=O)c2ccc(Cl)cc2)cc1 | SLC10A1 | taurocholate uptake, inhibitor | NTCP-expressing HEK293 | with: 10 µM taurocholate | Ki | 211 ± 60 µM |
| COc1ccccc1NC(=O)CSc1nncn1C | CDK2 with cyclin A |  |  |  | Kd | > 100 µM |
| C[N+](C)(C)C[C@H](O)CC(=O)[O-] | SLC10A1 | taurocholate uptake, inhibitor | NTCP-expressing HEK293 | with: 10 µM taurocholate | Ki | 181 ± 60 µM |
| O=S(=O)(NCCSc1ccccn1)c1ccc(Br)cc1 | CDK2 | binding |  |  | Kd | > 100 µM |

| Structure (SMILES) | target | test | test system | setting | endpoint | result |
| --- | --- | --- | --- | --- | --- | --- |
| CC/C(=C(\c1ccccc1)c1ccc(OCCN(C)C)cc1)c1ccccc1 | SLC10A1 | taurocholate uptake, inhibitor | NTCP-expressing HEK293 | with: 10 µM taurocholate | Ki | 87.5 ± 53.8 µM |
| CC1Cc2ccc(OCc3c(F)cccc3Cl)cc2N1S(=O)(=O)c1cccc(C(F)(F)F)c1 (stereo not shown) | RORC | IL-17 production, inverse agonist | HEK-293T | with: ursolic acid | EC50 | 1.13 µM |
| COc1cccc(-n2nnnc2SCC(=O)Nc2c(C)cc(C)cc2C)c1 | CDK2 | binding |  |  | Kd | > 100 µM |
| O=S(=O)(O)C[C@@H](O)CO | Uncharacterized protein (Pelagibacter ubique, UniProt Q4FMA9) | binding, isothermal titration calorimetry | Candidatus Pelagibacter ubique | with: CaCl2 10 mM | Kd | 2.27 ± 0.64 µM |
| C[C@@H]1O[C@@H](O[C@H]2[C@H](Oc3cc(O)c(C(=O)CCc4ccc(O)cc4)c(O)c3)O[C@H](CO)[C@@H](O)[C@@H]2O)[C@H](O)[C@H](O)[C@H]1O | ESR1 | array formation, agonist | ERα-GFP PRL-HeLa | 1 h | EC50 | 1.32 µM |
| CNC(=O)c1cc(Oc2ccc(NC(=O)Nc3ccc(Cl)c(C(F)(F)F)c3)cc2)ccn1 | SLC10A1 | taurocholate uptake, inhibitor | NTCP-expressing HEK293 | with: 10 µM taurocholate | Ki | 41.5 ± 8.1 µM |
| O=c1cc(-c2ccccc2)oc2ccc(O)cc12 | ESR1 | array formation, agonist | ERα-GFP PRL-HeLa | 1 h | EC50 | 1.31 µM |
| OC[C@@H](O)[C@@H](O)[C@H](O)[C@H](O)CO | SLC10A1 | taurocholate uptake, inhibitor | NTCP-expressing HEK293 | with: 10 µM taurocholate | Ki | 892 ± 501 µM |
| O=c1n(CCCN2CCN(c3cccc(Cl)c3)CC2)nc2ccccn12 | SLC5A7 (Homo sapiens, UniProt Q9GZV3) |  |  |  | Ki | > 10 µM |
| Cn1cc(-c2ccc(S(=O)(=O)n3ccc(/C=C/C(=O)Nc4ccccc4N)c3)cc2)cn1 | MBLAC2 | inhibitor, competition pulldown | SW620 and MV4-11 lysate | 1 h | Kd | > 30.2 µM |
| O=S(=O)(c1cncc(C(F)(F)F)c1)N1CCc2ccc(OCc3c(F)cccc3Cl)cc21 | RORC | reporter gene, agonist, GAL4 luciferase reporter |  | with: ursolic acid 2 µM | EC50 | 0.47 ± 0.07 µM |
| CCCN(CCCCOCCOCCOCCOCCOCC(=O)N[C@H](C(=O)N1C[C@H](O)C[C@H]1C(=O)NCc1ccc(-c2scnc2C)cc1)C(C)(C)C)C[C@@H](C)NC(=O)c1ccc(-c2noc(C(F)(F)F)n2)cc1 | Histone deacetylase 4 (Hdac4, Mus musculus, UniProt Q6NZM9) | degrader |  |  | DC50 | 0.071 µM |
| Cc1[nH]c(C)c(S(=O)(=O)Nc2ccc(C(F)(F)F)c(Cl)c2)c1C(=O)N1CCC(F)(F)C1 | DRD3 | binding, allosteric modulator, radioligand competition binding | cell membranes | with: dopamine vs [3H]methylspiperone | Kb | 2.1 µM |
| COc1c(-c2ccccc2)oc2cc(O)cc(O)c2c1=O | ESR1 | array formation, agonist | ERα-GFP PRL-HeLa | 1 h | EC50 | 1.05 µM |
| Cc1[nH]c(C)c(C(=O)N2CCC(F)(F)C2)c1C(=O)Nc1ccc(C(F)(F)F)c(Cl)c1 | DRD3 | Go activation, antagonist, BRET |  | with: dopamine | IC50 | > 100 µM |
| O=C1NCCc2nc(OCc3cccc(F)c3)ccc21 | Grm5 (Rattus norvegicus, UniProt P31424) | calcium flux, allosteric modulator, operational model of allosterism |  | with: glutamate | Kb | 2.14 µM |
| COc1cc(OC)cc(OC)c1 | ESR1 | array formation, agonist | ERα-GFP PRL-HeLa | 1 h | EC50 | 5.51 µM |
| CC(=O)N=S(=O)(O)c1ccc(N/C=C2\C(=O)Nc3ccc4ncsc4c32)cc1 | CDK2 | binding, thermal shift |  |  | Kd | 3.58 µM |
| Cc1ccc(NS(=O)(=O)c2c(C(=O)N3CCC(F)(F)C3)c(=O)[nH]n2C)cc1Cl | DRD3 | β-arrestin recruitment, antagonist, PathHunter |  | with: dopamine EC80 | IC50 | > 100 µM |
| NS(=O)(=O)c1ccc(NN=C2C(=O)Nc3ccc(C(=O)O)cc32)cc1 | CDK2 with cyclin A | bio-layer interferometry (Octet RED) |  | 298 K, CDK2-cyclin A complex, averaged | Kd | 0.00843 µM |
| Cc1ccc(S(=O)(=O)Nc2c(C)[nH]c(C)c2C(=O)N2CCC(F)(F)C2)cc1 | DRD3 | β-arrestin recruitment, antagonist, PathHunter |  | with: dopamine EC80 | IC50 | > 100 µM |
| CC(=O)c1cccc(NC(=O)CSc2nnc(-c3cc4ccccc4cc3O)n2C)c1 | CDK2 | binding |  |  | Kd | > 100 µM |
| O=S(=O)(c1cccc(Cl)c1)N1CCc2ccc(OCc3c(F)cccc3Cl)cc21 | RORC | reporter gene, agonist, GAL4 luciferase reporter |  | with: ursolic acid 2 µM | EC50 | 2.3 ± 0.41 µM |
